# Assay results from different studies.
# Numbered parts are unrelated; each lists some results of a single study.
# Sequence of UniProt P61075 (whole entry, looked up): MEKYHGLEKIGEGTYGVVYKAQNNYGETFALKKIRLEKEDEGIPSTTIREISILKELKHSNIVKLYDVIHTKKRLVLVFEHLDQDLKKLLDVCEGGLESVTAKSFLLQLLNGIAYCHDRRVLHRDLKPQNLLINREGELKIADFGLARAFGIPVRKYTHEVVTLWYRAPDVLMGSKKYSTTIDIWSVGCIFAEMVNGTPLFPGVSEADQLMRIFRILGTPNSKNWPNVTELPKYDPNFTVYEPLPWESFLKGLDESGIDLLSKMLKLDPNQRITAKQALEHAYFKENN
# Sequence of UniProt Q9NRR2 (whole entry, looked up): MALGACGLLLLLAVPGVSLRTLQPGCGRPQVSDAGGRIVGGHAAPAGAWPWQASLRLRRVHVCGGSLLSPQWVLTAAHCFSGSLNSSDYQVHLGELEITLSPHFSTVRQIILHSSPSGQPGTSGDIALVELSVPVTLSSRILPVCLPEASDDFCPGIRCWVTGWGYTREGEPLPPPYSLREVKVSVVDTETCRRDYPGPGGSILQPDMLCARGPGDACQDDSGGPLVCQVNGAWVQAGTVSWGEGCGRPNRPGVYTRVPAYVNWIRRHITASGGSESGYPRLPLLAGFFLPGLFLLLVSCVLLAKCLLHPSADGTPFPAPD

# Series 1
# Target: HLA class I histocompatibility antigen, A alpha chain, allele A*80:01 (Homo sapiens, UniProt P04439)
# Read-out: peptide-MHC binding
# Molecule type: peptide
# Tested at: concentration not given
Sequence,binding
ITNPFFYQM,inactive
ITDFNIDTY,inactive
DSPATLSAY,inactive
ETIFTVLAL,inactive
WFLYVSQQI,inactive
ALGGSCHTT,inactive
RFLTHYFTK,inactive
MPFDPSELV,inactive

# Series 2
# Target: UBE2W UBC core domain (UniProt Q96B02)
# Technique: yeast two-hybrid
# Sample: yeast
# Setting: mostly zero background
# Reference: not given
# Direction: higher = stronger interaction
# B1: TRIM24 RING domain (UniProt O15164); chain EAARLNLLDTCAVCHQNIQSRAPKLLPCLHSFCQRCLPAPQRYLMLPAPMLGSAETPPPVPAPGSPVSGSSPFATQVGVIRCPVCSQECAERHII
# B2: MKRN1 RING domain (UniProt Q9UHC7); chain FAVQRSKDMVCGICMEVVYEKANPSERRFGILSNCNHTYCLKCIRKWRSAKQFESKIIKSCPECRITSNFVIPSE
# B3: TRIM5 RING domain (UniProt Q9C035); chain LREVKLSPEGQKVDHCARHGEKLLLFCQEDGKVICWLCERSQEHRGHHTFLTEEVAREYQVKL
# B4: DTX4 RING domain (UniProt Q9Y2E6); chain QKVRHPPDEDCTICMERLTAPSGYKGPQPTVKPDLVGKLSRCGHVYHIYCLVAMYNNGNKDGSLQCPTCKTIYGVKTGTQ
# Construct (chain): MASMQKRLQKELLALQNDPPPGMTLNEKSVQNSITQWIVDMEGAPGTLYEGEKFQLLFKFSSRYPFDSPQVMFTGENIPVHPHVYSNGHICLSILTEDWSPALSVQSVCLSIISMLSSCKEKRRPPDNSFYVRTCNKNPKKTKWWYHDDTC
Sequence,lacZ reporter activity
B1 (TRIM24 RING domain),0
VEPSEENSKDCVVCQNGTVNWVLLPCRHTCLCDGCVKYFQQCPMCRQFVQESFALC (CGRRF1 RING domain (UniProt Q99675)),0
DHGAVGQEMCCPICCSEYVKGEVATELPCHHYFHKPCVSIWLQKSGTCPVCRCMFPPPL (PJA1 RING domain (UniProt Q8NG27)),0
FQGDVDEDLICPICSGVLEEPVQAPHCEHAFCNACITQWFSQQQTCPVDRSVVTVAHLRP (RNF41 RING domain (UniProt Q9H4P4)),0
B2 (MKRN1 RING domain),0
B3 (TRIM5 RING domain),0
MPIRALCTICSDFFDHSRDVAAIHCGHTFHLQCLIQWFETAPSRTCPQCRIQVGKRTIIN (TRAIP RING domain (UniProt Q9BWF2)),2630
B4 (DTX4 RING domain),0

# Other studies, line by line
SMILES,target,read-out,technique,tested at,endpoint,value
N=C(N)c1ccc2cc(OC(=O)c3ccc(N=C(N)N)cc3)ccc2c1,"Tryptase gamma (Homo sapiens, UniProt Q9NRR2)",,,,IC50,< 0.508 nM
CO[C@@H](C)c1c(Nc2ccc([C@@H](N(C)C(=O)C3CCS(=O)(=O)CC3)C(F)(F)F)cc2)cnc2cc(Cl)nn12,"Cyclin-dependent kinase 2 homolog (CRK2, Plasmodium falciparum, UniProt P61075)",cell-free assay,competition with immobilised ligand,1 µM,remaining binding,100%

# Excerpt of the above (series 1):
Sequence,binding
ETIFTVLAL,inactive
